Experimental data of several laboratories.
Lines come from different studies, so protocols differ.
Target: Serine/threonine-protein kinase PAK 5 (PAK5, Homo sapiens, UniProt Q9P286)
Sequence of UniProt Q9P286 (whole entry, looked up): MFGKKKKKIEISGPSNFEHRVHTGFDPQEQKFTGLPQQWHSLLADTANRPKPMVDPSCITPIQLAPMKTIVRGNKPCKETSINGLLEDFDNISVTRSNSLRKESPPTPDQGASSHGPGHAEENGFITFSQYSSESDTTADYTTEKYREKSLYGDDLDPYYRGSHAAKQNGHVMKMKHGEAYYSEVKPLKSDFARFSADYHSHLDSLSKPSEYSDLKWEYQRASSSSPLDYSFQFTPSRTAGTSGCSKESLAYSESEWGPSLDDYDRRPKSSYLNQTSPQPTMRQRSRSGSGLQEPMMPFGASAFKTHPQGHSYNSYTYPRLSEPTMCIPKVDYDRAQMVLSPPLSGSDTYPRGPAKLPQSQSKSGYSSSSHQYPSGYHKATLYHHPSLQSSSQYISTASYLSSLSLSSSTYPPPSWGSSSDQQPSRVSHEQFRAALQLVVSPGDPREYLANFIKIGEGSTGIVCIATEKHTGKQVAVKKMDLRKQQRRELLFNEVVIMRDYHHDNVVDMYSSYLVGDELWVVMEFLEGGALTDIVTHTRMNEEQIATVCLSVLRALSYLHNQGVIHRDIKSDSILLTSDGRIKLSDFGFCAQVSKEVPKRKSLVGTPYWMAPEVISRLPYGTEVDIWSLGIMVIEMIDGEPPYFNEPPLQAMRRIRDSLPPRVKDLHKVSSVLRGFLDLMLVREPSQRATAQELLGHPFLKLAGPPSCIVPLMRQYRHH

`C=CC(=O)N1CCC(COCC(=O)N2CCN(c3nc(-c4cnc(N)nc4C(F)F)nc(N4CCOC[C@@H]4C)n3)CC2)CC1` gave a remaining binding of 84% (KINOMEscan; 1 µM).
`COc1cc(-c2cncc3c2CN(C)Cc2cc(N4CCNCC4)ccc2-3)cc(OC)c1OC` gave a remaining activity of 112% (kinase activity; 1 µM, human enzyme, together with: ATP 10 µM; baseline: DMSO control).
Under “remaining kinase activity”, `COCCNc1nc2ccc(C#CC3(O)CCCCC3)cc2n1-c1ccnc(N)n1` is recorded as 75.1% (enzyme activity, inhibitor, Z'-LYTE; 1 µM; baseline: no-inhibitor control).
`COc1cc(F)ccc1-c1ncnc(Nc2cccc(C[S@](C)(=N)=O)c2)n1` gave a remaining activity of 71% (kinase activity; 10 µM, together with: 10 µM ATP).
`CN(C)CC#Cc1ccc2[nH]c3c(c2c1)-c1nc(N)ncc1CCC3` gave a remaining activity of 89% (kinase activity, inhibitor, radiometric; 1 µM, together with: ATP at Km).
`O=C1NC(=O)/C(=C/c2ccc(-c3ccc(F)cc3O)o2)S1` has a remaining activity of 49% (enzyme activity; 10 µM).
For `C=CC(=O)N1CCC(C(=O)NCC(=O)N2CCN(c3nc(-c4cnc(N)nc4C(F)F)nc(N4CCOCC4)n3)CC2)CC1`, the remaining binding was 79% (KINOMEscan; 1 µM).
`Cc1cc(Nc2cc(N3CCN(C)CC3)nc(Sc3ccc(NC(=O)C4CC4)cc3)n2)[nH]n1` gave a remaining activity of 109% (kinase activity, KinaseProfiler; 0.03 µM, species human; baseline: control).

Repeated from above:
`O=C1NC(=O)/C(=C/c2ccc(-c3ccc(F)cc3O)o2)S1` has a remaining activity of 49% (enzyme activity; 10 µM).
